Measurements pooled from the literature.
Lines come from different studies, so protocols differ. ± marks the error that the study gave.
CNR1: Cannabinoid receptor 1 (CNR1, Homo sapiens, UniProt P21554)
Oprk1: Kappa-type opioid receptor (Oprk1, Mus musculus, UniProt P33534)
Tmem97: Sigma intracellular receptor 2 (Tmem97, Rattus norvegicus, UniProt Q5U3Y7)
cyp121: Mycocyclosin synthase (cyp121, Mycobacterium tuberculosis, UniProt P9WPP7)

Chains of the proteins cited; added tags and fusions are not shown. Residues count along the entry.
UniProt P21554, whole entry: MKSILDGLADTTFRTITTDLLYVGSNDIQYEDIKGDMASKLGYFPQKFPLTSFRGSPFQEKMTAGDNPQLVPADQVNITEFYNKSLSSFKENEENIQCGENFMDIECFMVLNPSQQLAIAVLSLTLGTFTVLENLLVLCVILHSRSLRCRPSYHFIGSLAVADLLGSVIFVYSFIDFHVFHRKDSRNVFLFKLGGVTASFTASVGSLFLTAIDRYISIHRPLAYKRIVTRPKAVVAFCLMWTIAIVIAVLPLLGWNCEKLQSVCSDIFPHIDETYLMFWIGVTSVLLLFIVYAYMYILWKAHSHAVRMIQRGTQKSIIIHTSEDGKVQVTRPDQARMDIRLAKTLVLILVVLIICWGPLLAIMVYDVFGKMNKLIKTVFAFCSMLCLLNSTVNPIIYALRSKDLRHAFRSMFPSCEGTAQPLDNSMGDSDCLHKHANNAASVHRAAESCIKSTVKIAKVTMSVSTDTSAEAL
UniProt Q5U3Y7, whole entry: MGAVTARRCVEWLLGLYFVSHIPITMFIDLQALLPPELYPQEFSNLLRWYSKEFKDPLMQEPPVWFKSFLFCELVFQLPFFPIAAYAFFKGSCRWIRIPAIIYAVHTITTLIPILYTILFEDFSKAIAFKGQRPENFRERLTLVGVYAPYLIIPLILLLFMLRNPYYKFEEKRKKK
UniProt P9WPP7, whole entry: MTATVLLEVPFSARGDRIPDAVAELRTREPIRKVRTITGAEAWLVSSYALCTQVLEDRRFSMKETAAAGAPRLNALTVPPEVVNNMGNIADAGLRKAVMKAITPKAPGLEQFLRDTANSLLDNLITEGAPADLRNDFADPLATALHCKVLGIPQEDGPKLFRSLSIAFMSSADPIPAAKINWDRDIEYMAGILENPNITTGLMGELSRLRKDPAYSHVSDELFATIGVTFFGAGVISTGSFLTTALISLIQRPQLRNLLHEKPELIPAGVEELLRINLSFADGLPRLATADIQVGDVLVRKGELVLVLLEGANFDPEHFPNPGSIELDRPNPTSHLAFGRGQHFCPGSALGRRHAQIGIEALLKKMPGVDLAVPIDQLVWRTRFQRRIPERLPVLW
UniProt P63252, whole entry: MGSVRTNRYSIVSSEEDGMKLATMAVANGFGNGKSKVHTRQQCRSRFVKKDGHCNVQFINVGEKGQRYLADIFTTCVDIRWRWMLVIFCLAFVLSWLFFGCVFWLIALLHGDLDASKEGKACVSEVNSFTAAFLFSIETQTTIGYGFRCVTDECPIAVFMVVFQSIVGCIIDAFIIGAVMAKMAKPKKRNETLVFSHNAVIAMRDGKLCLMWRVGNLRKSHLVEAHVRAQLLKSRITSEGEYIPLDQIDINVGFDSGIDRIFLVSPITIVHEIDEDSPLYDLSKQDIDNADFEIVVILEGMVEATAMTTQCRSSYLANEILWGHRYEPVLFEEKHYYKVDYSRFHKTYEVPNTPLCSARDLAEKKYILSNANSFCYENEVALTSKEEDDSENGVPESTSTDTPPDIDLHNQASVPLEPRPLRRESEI
UniProt P47936, whole entry: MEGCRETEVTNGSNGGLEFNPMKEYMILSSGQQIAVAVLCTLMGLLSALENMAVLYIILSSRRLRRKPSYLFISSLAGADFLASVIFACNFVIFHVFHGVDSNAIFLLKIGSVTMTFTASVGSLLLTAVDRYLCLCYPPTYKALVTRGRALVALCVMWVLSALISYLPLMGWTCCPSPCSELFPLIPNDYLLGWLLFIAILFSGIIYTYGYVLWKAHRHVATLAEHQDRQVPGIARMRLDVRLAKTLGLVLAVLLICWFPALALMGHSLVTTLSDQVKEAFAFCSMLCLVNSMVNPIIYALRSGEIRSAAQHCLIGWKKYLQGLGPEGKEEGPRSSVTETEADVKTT
UniProt Q8N8U2, 1-75 limits assumed: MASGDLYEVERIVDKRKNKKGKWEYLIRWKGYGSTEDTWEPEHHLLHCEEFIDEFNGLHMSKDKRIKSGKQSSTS
UniProt P42574, whole entry, looked up: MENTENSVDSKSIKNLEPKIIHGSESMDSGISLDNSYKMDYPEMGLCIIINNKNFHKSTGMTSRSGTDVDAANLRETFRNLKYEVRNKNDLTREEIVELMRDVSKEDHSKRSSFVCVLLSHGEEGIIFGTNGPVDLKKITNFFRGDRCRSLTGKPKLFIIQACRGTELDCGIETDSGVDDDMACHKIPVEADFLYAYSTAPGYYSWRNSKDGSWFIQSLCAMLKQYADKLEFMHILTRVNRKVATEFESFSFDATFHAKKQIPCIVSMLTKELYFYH

| SMILES | target | test | system | setting | scale | endpoint | value |
| --- | --- | --- | --- | --- | --- | --- | --- |
| O=C(CC1CCCC1)NC1CCN(c2ncnc3c2nc(-c2ccccc2Cl)n3-c2ccc(Cl)cc2)CC1 | CNR1 | binding, radioligand displacement | CHO cell membranes | together with: [3H]CP55940 | relative to: Ki CB2 over Ki CB1 | selectivity ratio | 280 |
| Cc1cc(C(=O)N[C@@H]2CC[C@@]3(O)[C@H]4Cc5ccc(O)c6c5[C@@]3(CCN4CC3CC3)[C@H]2O6)ccn1 | Oprk1 | radioligand binding | CHO cell membranes | together with: [3H]diprenorphine | relative to: Ki mu receptor over Ki kappa receptor | selectivity ratio | 0.67 |
| CC1CCN(Cc2cc(Cl)c3cccnc3c2O)CC1 | KCNJ2 (Homo sapiens, UniProt P63252) | inhibitor, thallium flux | – | – | relative to: Kir7.1 over KCNJ2 | selectivity ratio | > 7 fold |
| CC1(C)Oc2cc(C(=O)c3csc4ccccc34)cc(O)c2[C@@H]2C[C@H](O)CC[C@H]21 | Cnr2 (Mus musculus, UniProt P47936) | binding, [3H]CP-55,940 radioligand binding | HEK293 cell membranes | – | relative to: Ki rat CB1 over Ki mouse CB2 | selectivity ratio | 37 fold |
| O=C(NC1CCN(c2ncnc3c2nc(-c2ccccc2Cl)n3-c2ccc(Cl)cc2)CC1)C1CCCC1 | CNR1 | binding, radioligand displacement | CHO cell membranes | together with: [3H]CP55940 | relative to: Ki CB2 over Ki CB1 | selectivity ratio | 40 |
| O=C(c1ccc(Br)cc1)C1CCN([C@@H]2Cc3ccccc3C[C@H]2O)CC1 (relative stereo) | Tmem97 | binding | – | – | relative to: Ki sigma-2 over Ki VAChT | selectivity ratio | 2370 |
| CC(c1ccc2c(c1)Cc1cc(O)ccc1-2)n1ccnc1 (stereo not drawn) | cyp121 | binding | – | – | – | Kd | 5.3 ± 0.68 µM |
| O=C(c1ccccc1)C1CCN([C@@H]2Cc3ccccc3C[C@H]2O)CC1 (relative stereo) | Tmem97 | binding | – | – | relative to: Ki sigma-2 over Ki VAChT | selectivity ratio | 74.4 |
| COCCCNc1cc(C(=O)NC2CC3CCC(C2)N3c2ccc(C(=O)NCc3ccccc3)cn2)ccc1C(N)=O (stereo not drawn) | Hsp90, Plasmodium falciparum | – | – | – | relative to: human Hsp90 Ki over P. falciparum Hsp90 Ki | selectivity ratio | 9.6 fold |
| c1cn(Cc2ccc(-c3ccoc3)cc2)cn1 | cyp121 | binding | – | – | – | Kd | 32.9 ± 11.1 µM |
| O=C(c1ccc(O)c(Sc2ccccc2)c1)N1Cc2ccccc2C1 | HSP90AA1 (Homo sapiens, UniProt P07900) | fluorescence polarization | – | together with: FITC-geldanamycin | relative to: IC50 Hsp90beta over Hsp90alpha | selectivity ratio | > 20 fold |
| O=C(N[C@@H]1CC[C@@]2(O)[C@H]3Cc4ccc(O)c5c4[C@@]2(CCN3CC2CC2)[C@H]1O5)c1ccnc(Cl)c1 | Oprk1 | radioligand binding | CHO cell membranes | together with: [3H]diprenorphine | relative to: Ki mu receptor over Ki kappa receptor | selectivity ratio | 0.67 |
| CCN(CCCC[C@H](NC(=O)[C@H](Cc1ccccc1)NC(=O)[C@H](C)NC(=O)[C@H](Cc1ccccc1)NC(=O)C1CCCCC1)C(=O)N[C@H](C(N)=O)[C@@H](C)O)C(C)C | CDYL2 (Homo sapiens, UniProt Q8N8U2) | binding, isothermal titration calorimetry | – | – | relative to: CBX7 Kd over target Kd | selectivity ratio | 5 fold |
| [N-]=[N+]=CC(=O)[C@H](Cc1cccc([N+](=O)[O-])c1)NC(=O)OCc1ccccc1 | Caspase-3 (CASP3, Homo sapiens, UniProt P42574) | – | – | – | relative to: IC50 caspase-3 over IC50 streptopain | selectivity ratio | > 21 fold |
| N#Cc1cc(C(=O)N[C@@H]2CC[C@@]3(O)[C@H]4Cc5ccc(O)c6c5[C@@]3(CCN4CC3CC3)[C@H]2O6)ccn1 | Oprk1 | radioligand binding | CHO | together with: [3H]diprenorphine | relative to: Ki δ over Ki κ | selectivity ratio | 579 |

For quick reference, copied from above:
| SMILES | target | test | system | setting | scale | endpoint | value |
| --- | --- | --- | --- | --- | --- | --- | --- |
| CC1(C)Oc2cc(C(=O)c3csc4ccccc34)cc(O)c2[C@@H]2C[C@H](O)CC[C@H]21 | Cnr2 (Mus musculus, UniProt P47936) | binding, [3H]CP-55,940 radioligand binding | HEK293 cell membranes | – | relative to: Ki rat CB1 over Ki mouse CB2 | selectivity ratio | 37 fold |
